Measured values from different studies.
Every numbered part comes from another study and shows a few of its results, in no order.

Sample 1 — technique: protein-binding microarray; form: double-stranded DNA, one strand shown; matrix: in vitro; tested at: 940 nM top; notes: 60-bp whole probe; with: salmon DNA 0.4 mg/ml; relative to: random background probes; reading: higher = stronger binding; endpoint: fitted relative affinity; constant ends, left off below: GCCTAGCAC … GTCTTGATTCGCTTGACGCTGCTG
Target: Interferon regulatory factor 5, full length, phosphomimetic (IRF5, Homo sapiens, UniProt Q13568-2, residues 1-514, S451D/S453D/S456D/S462D)
GACGGTATCGGGAGTGGGGACGTGCTA: 3.47 z-score
GACGGTATCGACACTCGGGACGTGCTA: 3.6 z-score
GACGAACTGAGTTTCTAGACGTGCTAG: 0.515 z-score
GACGGTTTCGACACTTGGGACGTGCTA: 6.57 z-score
TGATTGGTTGAACATGAACTGTGCTAG: -0.192 z-score
TTAGAAATCGGGTTTCGATTAGTGCTA: 5.86 z-score
GACGGACTGGACACTGCGGACGTGCTA: -0.373 z-score
TTAGGACTGATACTGCTTTAGTGCTAG: 0.376 z-score
TTAGATTTCCTACTGCTTTAGTGCTAG: 0.237 z-score
TTAGGTCTCGGTATCGGTTGGTGCTAG: 7.03 z-score
GGGGAGCAGGGTGGCCCTGTGTGCTAG: -0.426 z-score
TCAGAACTGAGACTGGATTAGTGCTAG: 0.146 z-score
GAGGGACTGCTTTTCCTGACGTGCTAG: -0.215 z-score
GACGAACTGAGACTGGAAACGTGCTAG: -0.331 z-score
TTAGGTCTCCTTCGCCTTTAGTGCTAG: 0.35 z-score
TTAGATCTCAGTTACGATTAGTGCTAG: 0.522 z-score
GACGGACCGGACTATCGGGACGTGCTA: -0.522 z-score
GACGATTTCAGTAGCGAGACGTGCTAG: 0.357 z-score
CTGAGAATGGGGTTTGCAGCCGTGCTA: 0.148 z-score

Sample 2 — technique: RNA Bind-n-Seq; form: RNA; matrix: in vitro; tested at: not given; relative to: input RNA pool; reading: higher = stronger binding; endpoint: bound/input enrichment
Target: RING finger protein unkempt homolog, zinc fingers 1-6, GST-SBP tag (UNK, Homo sapiens, UniProt Q9C0B0, residues 30-357)
Notes: RNA with constant flanks, human and mouse sites, ends assumed
Constant ends, left off below: GGGAGUUCUACAGUCCGACGAUC … CAACAGAGGAUUGAGCAUCA
Residues (chain): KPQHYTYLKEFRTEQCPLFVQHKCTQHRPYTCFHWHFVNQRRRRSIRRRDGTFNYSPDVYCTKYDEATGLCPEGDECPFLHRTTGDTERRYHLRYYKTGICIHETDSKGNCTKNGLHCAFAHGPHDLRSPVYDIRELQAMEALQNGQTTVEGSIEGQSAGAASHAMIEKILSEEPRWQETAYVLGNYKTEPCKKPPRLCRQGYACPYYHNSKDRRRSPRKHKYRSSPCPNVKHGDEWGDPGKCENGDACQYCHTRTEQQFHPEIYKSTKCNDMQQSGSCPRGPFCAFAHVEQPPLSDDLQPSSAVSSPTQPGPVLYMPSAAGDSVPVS
AAAGCUGCACUGAAAAGCUUGAUUCCUACAUUGGAAAAAACCAAAAGCACCAGCAAAGGAAUAGAAAUUCUACUUGAAAAACUGAGCACAUAGGUGGAAAGAGUUAAGAGCAAGAUGGAA: 0.241 ratio
GACAUUAAAAAUUUUCUGUAUGCCUGGUGUGGCAAAAGGAAGAUGACUCCAGCCUAUGAAAUUAGAGCAGUAGGAAACAAAAACAGACAGAAAUUCAUGUGUGAGGUUCGAGUAGAAGGG: 1.74 ratio
GGCAGUUGCAAUUUGAACUUGAGCUCUAAAAAUGGUCUAUUUGUGGUUAUAUUUGCCCAUUUUAAAAGUGAAAUUUCAUUUCUGGAUGCCUUUGAAAACUGACUUUACAUGUGUUUUUGG: 0.241 ratio
CAGGUUUCUGGCCUUGCAGCCAAUCGUUCUCUGACAGAAGGCCUGGUCCUGGACACAAUGAAUGACAGCCUCAGCAAGAUCCUGCUGGACAUCAGCUUUCCUGGCCUGGACGAGGACCCA: 0.0636 ratio
AUGGACAUGCCUCUCGAACCUUCUGAGAAAGCCACGGAUCUCUCUUUAAAACCCACUUUGUCUGCCACAGAACCCUGCAGUACGAAAGUUGAAGAGAAGGCCCCCAGAAGUAAGAGUGAG: 0.266 ratio
AUUUUUUAUGUAGGUGAGCUAACACAGUGUAUCUAAUUGAAGAAUUCUGAUUAAUUUGUAAUAGAUAAGUUGUAUAAAAUUUUCAUACCUUAAAGUGUUUUAGAUUACUCUUCAAGUGAA: 2.11 ratio
GCUGUGUUGCUAACUCUUUCGCUCAUGUUAGUUUGGUUAUGUGGAUCUGUUGUCUAAGAGCCCUCACUUUUUUCUUUUUCUUUUUUUUUUCUUUUUUUUGGUUCUUUCUGACUGCUUUGU: 2.03 ratio
CUUAUCAAUCCAGAUGAACUGAGGGACAUCUGUUGGUCUAUGUAUAACUUUUAAAAUUGGUAUAGUAUCUACAGAGUGUAUAAUUUAAACUAACCACAAAGCUUUACAUCUUCAUUUUGA: 0.192 ratio
UGCAUGGAAUCUGCCUCUUAACUCUUAGGAGAUUAAUGUUUGUUCCAAGGCAUUCUGCAGCUGGUAAUUACACUUUAAGUGUCAUCACUAAAAUUUUCUCCUUGUCCUAAGAGUGUGUGU: 0.172 ratio
UAAAAUCUUGGCCAUUGUGGGAACUGCUGAAAGUAACAGUGAACACCCUCUAGGAACAGCCAUAACCAAAUAUUGCAAACAGGAGCUGGACACUGAAACCUUGGGUACCUGCAUAGAUUU: 0.473 ratio
UUUCUUAUUUUGAUAUUUUUUUAAUGUUGUGGAUGAAUGCCAGCUUUCAGACAGAGCCCACUUAGCUUGUCCACAUGGAUCUCAAUGCCAAUCCUCCAUUCUUCCUCUCCAGAUAUUUUU: 4.23 ratio

Sample 3 — technique: RNA Bind-n-Seq; form: RNA; matrix: in vitro; tested at: 20 nM; notes: 6-mer, flanks averaged, single round; with: 150 mM KCl; relative to: input library; reading: higher = stronger binding; endpoint: 6-mer enrichment (R)
Target: TAR DNA-binding protein 43, full length, His tag (TARDBP, Homo sapiens, UniProt Q13148, residues 1-414)
UUGGCG: 1.29
CCUGAC: 0.666
UUUCGG: 0.777
CGAUUG: 0.756
GCUAAU: 0.669
GCCGCC: 0.869
GGGAGC: 3.69
GGGGCC: 3.88
UGGUUA: 0.743
GGUGUU: 1.31
UUGUAC: 0.611
CCCAGG: 1
UAACUG: 0.655
UCCCUG: 0.683

Sample 4 — technique: EMSA with sequencing; form: double-stranded DNA, one strand shown; matrix: in vitro; tested at: 10 and 20 nM; relative to: negative control set to 0; reading: higher = stronger binding; endpoint: normalised bound fraction
Target: Hepatocyte nuclear factor 3-alpha (Foxa1, Mus musculus, UniProt P35582, residues 1-468, full length assumed)
UniProt P35582, sequence (whole entry, looked up): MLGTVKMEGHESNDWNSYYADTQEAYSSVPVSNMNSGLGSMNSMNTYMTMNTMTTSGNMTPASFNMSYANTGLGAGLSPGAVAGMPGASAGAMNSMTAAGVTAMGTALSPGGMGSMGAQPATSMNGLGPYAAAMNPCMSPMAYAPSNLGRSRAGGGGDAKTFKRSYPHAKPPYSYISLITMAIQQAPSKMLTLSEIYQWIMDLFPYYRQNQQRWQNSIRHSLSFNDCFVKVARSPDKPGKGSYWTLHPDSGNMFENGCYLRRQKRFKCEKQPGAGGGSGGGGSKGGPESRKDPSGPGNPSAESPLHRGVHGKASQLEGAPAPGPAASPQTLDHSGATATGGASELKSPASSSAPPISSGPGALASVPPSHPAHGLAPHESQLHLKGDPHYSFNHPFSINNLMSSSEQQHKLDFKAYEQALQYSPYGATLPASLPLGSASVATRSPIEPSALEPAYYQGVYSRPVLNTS
Notes: whole designed probe, mean of two concentrations, ends assumed
Constant ends, left off below: GTGAGCGGTGCCCATTGATGGGGAAC … TTTCACTGGGATCGTGGGGAC
TTTCCACCTAAAATATTGTCATTCAGAAGGGAATCACTTTAATATCCACAAAGGAAAATTAACATGTTATAATTTCAGCCACAATAATATCTATGTAATCTTGCATTTAATCCTACTAATTTACAATTAATTCAATTTTTCTTTTATATTCTGCATTCCACATAAAGCGATAACAGGAAAACATAAAATTCCA: -0.0491 ratio
AGGGACACTCAGAGAGTGAGGGAAGAAGGCTCTGAAGATCTCACTACTGCAGAGCAAACAGCTCCATACAGTGATCTTCCTCACCCCAGAGAATGTTTACTCTATTAAATGTTAGAAGAGCATGTGTAAATAGCAAGCTTATTTAGTTTTCAGTTCCACCTCCCTTGGAAAGGAAAAGTGATACAATCATCTT: 0.389 ratio
TTTTTTCTGTACAGGGAAAAATAGTGAATATTTCAAAATTGTGAAACAAAGAGTCTCTGTGGCAACTACTCATTGTTGCATAACAGACAATATGCAAACAAATGAGTGTGTCTGTGTTCCAATAAAACTGTATTTACAAAAGCAGAAGGCCACCCATGTGCCAATGTCCAAAGTTTCTCAACCAACCCCTGGT: 0.437 ratio
CTCCAGGGTAGTTGTCCTTCCTGTGGCTGCTCACTGATCCAGGCTACTTTGATCTTGTGACTCAAAGTTCAACAAAATGTGGATGCGTCATTTTATTTACACTTCAATGGCCAGAAGGCCCTTACGAAATTCATCCAGTTGCAAGAAGTTTGGGAAATGTAGCCTTCCATATTTACAGGAATAAATGAAAAAC: 0.376 ratio
ACACAGAAACCCTTTGGTAACATGAGCTGTGTTTCCTTGTTAAATTGACCCTGCTGTCTGACACCCTCTGTTGCTACTGTTACATCACAGCTAGGTCAACATCCAGATTCCTTTACCAACTATGTGAGAATCTACTAAAAGCATTCTCTAATAATACAGTCAGCCCTGGGAAAGACATCTGAGCTTTAATTAA: 0.0364 ratio
CTGTAGCCTTTGCAAATAACCTTTTTGAACAAAAACGGCAATGGCTCATTCCAAACCCGATCAAAGAGGTATGCATGACTCACAGCCACTAAATAATCTTTGATGCCTGATGGCAGTAATATGGCTATTTATATTCAGAGCCTGATTTAACCAGTGGCATTCCTGTAATAAGATAATAAGCATGAGCTGTTTA: 0.103 ratio
CCCTCATCCTGGGTGTCGGGGTGGGAGGTGTTCTCATCATGAATGGGAGGCGTACCCAGATCCAGCTCTGCCTTGTGACTCACCAACCAGAGTGTAAACAAATGGCTGTGTGTCACACCATAATCGACATAGCAAGATATGATACATGCCAGGAGAGAAAAAGAAAGTGCTGATGGAAAAATAATCTCATTAG: 0.409 ratio
TATCTTCTCCCCATTTATTAATTCACATATTTACATCAGCTTGGAGTTATTGATTTCTATTTTATTAAATAGTTTATAATTGATTACCATCCTTATTTATTTTAATGCTCAAATTGTCCCAAATTATGGCCAAAGAAAGCTCCTTCAAACTGGTTGCTATGTCCTTTTGACATGGCCCATCATTCTTTAAACA: 0.256 ratio

Sample 5 — technique: protein binding microarray; form: double-stranded DNA, one strand shown; matrix: in vitro; tested at: not given; relative to: not given; reading: higher = stronger binding; endpoint: E-score
Target: Histone acetyltransferase KAT6A, both winged helices, GST fusion (KAT6A, Homo sapiens, UniProt Q92794, residues 1-181)
Notes: 8-mer, flanks averaged, mean of 2 arrays, mostly near background
Construct (chain): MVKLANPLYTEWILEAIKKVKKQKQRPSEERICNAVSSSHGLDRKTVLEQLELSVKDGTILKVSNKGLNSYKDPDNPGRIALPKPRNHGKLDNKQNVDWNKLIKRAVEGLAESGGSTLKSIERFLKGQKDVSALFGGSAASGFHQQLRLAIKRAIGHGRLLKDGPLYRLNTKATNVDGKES
GACTTTGA: -0.132
GTCGATAA: 0.0411
AAATGGTC: -0.122
CAACGGGA: 0.172
CGACAAAA: 0.0473
GAGGCCAC: -0.153
AGATGACT: -0.0485
CGCAACCA: 0.08
GTGACTAA: -0.00313
CCTTCAGA: -0.058
ACCGCGAC: 0.261
CCCCAGGG: -0.0774
CGGTCTAG: 0.0744
AAATGTGT: -0.0768
GCACCAAC: -0.00388
ACGTCAAC: 0.0526

For quick reference, copied from above (sample 5):
GAGGCCAC: -0.153
CCTTCAGA: -0.058
AGATGACT: -0.0485
GTCGATAA: 0.0411
ACGTCAAC: 0.0526
AAATGGTC: -0.122
AAATGTGT: -0.0768
